Published values gathered from unrelated publications.
“And” joins repeats or separate records; there may be more than shown. Numbers after ± are the reported error.
CNR2: Cannabinoid receptor 2 (CNR2, Homo sapiens, UniProt P34972)
Genome polyprotein NS2B-NS3 protease: Genome polyprotein, NS2B-NS3 protease (dengue virus type 2, UniProt P29990)
C3AR1: C3a anaphylatoxin chemotactic receptor (C3AR1, Homo sapiens, UniProt Q16581)
DGKA: Diacylglycerol kinase alpha (DGKA, Homo sapiens, UniProt P23743)

Compound	target	assay	test system	conditions	EC50
O=C1C[C@H](c2nc(-c3ccc(F)c4cn[nH]c34)no2)CCCN1c1ccc(F)cc1 (racemic)	CNR2	cAMP, agonist, luciferase	–	–	26.5 nM
Cc1cc(C(=O)N[C@H](C(=O)Nc2cccc(C(N)=O)c2)c2ccc(OCc3ccccc3)cc2)n(Cc2ccccc2)n1	Genome polyprotein NS2B-NS3 protease	reporter gene	HeLa	–	6200 nM
CCOC(=O)C(CC)(CCCSCCOCCOCCN=[N+]=[N-])NC(=O)c1ccc(C2CC2)c(Cc2ccc(F)cc2)n1 (stereo not shown)	CNR2	cAMP, agonist	–	–	1.9 nM
COc1cc(C2C(NC(=O)c3ccc(NC(=O)OC(C)(C)C)cc3)(C(=O)O)C(c3ccc(OC(=O)c4cccs4)c(OC)c3)C2(NC(=O)c2ccc(NC(=O)OC(C)(C)C)cc2)C(=O)O)ccc1OC(=O)c1cccs1 (stereo not shown)	GLP1R (Homo sapiens, UniProt P43220, Y145A)	cAMP, agonist	–	–	14.5 nM
CCOC(=O)C(CC)(CCCSCCOCCOCCOCCOCCNc1ccc([N+](=O)[O-])c2nonc12)NC(=O)c1ccc(C2CC2)c(Cc2ccc(F)cc2)n1 (stereo not shown)	CNR2	cAMP, agonist	–	–	20 nM
CSCC[C@H](NC(=O)[C@H](CC(C)C)NC(=O)CNC(=O)[C@H](Cc1ccccc1)NC(=O)[C@H](Cc1ccccc1)NC(=O)[C@@H](N)CCC(N)=O)C(N)=O	TACR1 (Homo sapiens, UniProt P25103, N85D)	agonist	–	concentration not given	10 nM
CCOC(=O)C(CC)(CCCSCCCCCCNc1ccc([N+](=O)[O-])c2nonc12)NC(=O)c1ccc(C2CC2)c(Cc2ccc(F)cc2)n1 (stereo not shown)	CNR2	cAMP, agonist	–	–	9.9 nM
O=C(Nc1cccc(CN2CCc3nc[nH]c3C2)c1)c1cc(-c2ccccc2)n(-c2ccccc2)n1	Genome polyprotein NS2B-NS3 protease	reporter gene	HeLa	–	5800 nM
O=C(O)CCC(=O)O	SUCNR1 (Homo sapiens, UniProt Q9BXA5)	inositol phosphate, agonist	–	–	14500 nM
CC(C)(C(=O)N1CCC(Nc2nc3c(c(=O)[nH]2)CCCC3)CC1)c1ccc(Cl)cc1	ADGRG3 (Homo sapiens, UniProt Q86Y34)	β-arrestin recruitment, agonist	–	–	6450 nM
Cc1c(C(=O)N[C@H](C(=O)Nc2cccc(C(N)=O)c2)c2ccc(OCc3ccccc3)cc2)cnn1-c1ccccc1	Genome polyprotein NS2B-NS3 protease	reporter gene	HeLa	–	9500 nM
Nc1ncnc2c1ncn2[C@@H]1O[C@H](COP(=O)(O)OP(=O)(O)OC[C@H]2OC(O)[C@H](O)[C@@H]2O)[C@@H](O)[C@H]1OP(=O)(O)O (stereo partly shown)	trpm2 (Danio rerio, UniProt A0A0R4IMY7)	activator	–	–	30 ± 3 nM
CC(C)C[C@H](NC(=O)[C@H](C)NC(=O)[C@H](CO)NC(=O)[C@@H]1CCCN1C(=O)[C@@H]1CCCN1C(=O)[C@H](CCC(N)=O)NC(=O)[C@H](CC(C)C)NC(=O)[C@@H](N)[C@@H](C)O)C(=O)N[C@@H](CCCNC(=N)N)C(=O)N[C@@H](CCCNC(=N)N)C(=O)N[C@@H](CCCNC(=N)N)C(=O)N[C@@H](Cc1c[nH]cn1)C(=O)N[C@@H](Cc1ccc(O)cc1)C(=O)N[C@@H](Cc1c[nH]cn1)C(=O)N[C@@H](Cc1c[nH]cn1)C(=O)N[C@@H](C)C(=O)N[C@@H](CC(C)C)C(=O)N1CCC[C@H]1C(=O)N1CCC[C@H]1C(=O)N[C@@H](CO)C(=O)N[C@@H](CCCNC(=N)N)C(=O)O	C3AR1	GoA protein dissociation, agonist, NanoBiT	–	–	2820 nM
CC(C)Oc1cc(Cl)ccc1CNc1cc(-c2ccccc2)nc2ncnn12	GPR3 (Homo sapiens, UniProt P46089, I200W)	cAMP level, agonist, cAMP GloSensor	–	I200W mutant	2680 nM
Cn1c(=O)n(C2CCC(=O)NC2=O)c2ccc(C3CCN(CC(=O)Nc4cccc(CS(=O)(=O)N5CC[C@H](Nc6cccc(-c7sc(C(=O)O)c(OCC(=O)O)c7Cl)c6)CC5(C)C)c4)CC3)cc21 (stereo partly shown)	DUSP3 (Homo sapiens, UniProt P51452)	phosphatase activity	–	added: DiFMUP substrate	> 10000 nM
N=C(N)Nc1ccc(CNC(=O)c2cc(-c3ccccc3)n(-c3ccccc3)n2)cc1	Genome polyprotein NS2B-NS3 protease	reporter gene	HeLa	–	> 50000 nM
CCOC(=O)C(CC)(CCCSCCCCCCNC(=O)OC(C)(C)C)NC(=O)c1ccc(C2CC2)c(Cc2ccc(F)cc2)n1 (stereo not shown)	CNR2	cAMP, agonist	–	–	7.7 nM
CC1=NC(C)C(C)S1 (stereo not shown)	uncharacterized protein (Canis lupus familiaris, UniProt A0A8I3P1R6)	cAMP level, agonist, cAMP luminescence	HEK293 cells	–	259000 ± 10800 nM
CCc1cc(O)cc2c(/C=N/NC(=N)NCCc3ccc(Cl)cc3)c[nH]c12	RXFP4 (Homo sapiens, UniProt Q8TDU9, L118A)	agonist	–	–	4.68 nM

Compound	target	assay	test system	conditions	EC50
COc1ccc(C(=O)c2c(C(=O)NCCCN(C)C)oc3ccc(Cl)cc3c2=O)cc1OC	GHSR (Homo sapiens, UniProt Q92847)	beta-arrestin-2 recruitment, BRET	HEK293T	60 min	97.7 nM
CCOC(=O)[C@](CC)(CCCSCCOCCOCCNC(=O)OC(C)(C)C)NC(=O)c1ccc(C2CC2)c(Cc2ccc(F)cc2)n1	CNR2	cAMP, agonist	–	–	4 nM
N=C(N)NCc1ccc(CNC(=O)c2cc(-c3ccccc3)n(-c3ccccc3)n2)cc1	Genome polyprotein NS2B-NS3 protease	reporter gene	HeLa	–	> 50000 nM
CCOC(=O)[C@@](CC)(CCCSCCOCCOCCN)NC(=O)c1ccc(C2CC2)c(Cc2ccc(F)cc2)n1	CNR2	cAMP, agonist	–	–	11 nM
O=C(Cc1ccc([N+](=O)[O-])cc1)N[C@H]1CCOC1=O	Regulatory protein SdiA (sdiA, Escherichia coli, UniProt P07026)	–	–	–	3.06 nM
N#Cc1cc(NC(=O)c2cc(-c3ccccc3)n(-c3ccccc3)n2)ccc1N1CCOCC1	Genome polyprotein NS2B-NS3 protease	reporter gene	HeLa	–	11000 nM
CC(C)C[C@H](NC(=O)[C@@H](Cc1c[nH]c2ccccc12)NC(=O)[C@H](Cc1ccc(O)cc1)NC(=O)[C@H](CO)NC(=O)[C@H](Cc1c[nH]c2ccccc12)NC(=O)[C@H](Cc1c[nH]cn1)NC(=O)[C@@H]1CCC(=O)N1)C(=O)N[C@@H](CCCNC(=N)N)C(=O)N1CCC[C@H]1C(=O)NCC(N)=O	GNRHR (Homo sapiens, UniProt P30968)	inositol phosphate, agonist, TR-FRET	–	–	0.0832 nM
CC[C@H]1CN(C(c2cccc(C(F)(F)F)c2)c2nc(C(F)(F)F)nn2C)[C@H](CC)CN1c1nc(=O)n(C)c2ccc(C#N)nc12 (stereo partly shown)	DGKA	DGKα-YFP translocation, high-content imaging	Jurkat	–	> 3000 nM
CC[C@H](C)[C@H](NC(=O)[C@H](CCCNC(=N)N)NC(=O)[C@H](CCCNC(=N)N)NC(=O)[C@H](CC(C)C)NC(=O)[C@H](Cc1ccccc1)NC(=O)CNC(=O)CN)C(=O)N[C@@H](CCCNC(=N)N)C(=O)N1CCC[C@H]1C(=O)N[C@@H](CCCCN)C(=O)N[C@@H](CC(C)C)C(=O)N[C@@H](CCCCN)C(N)=O	GPR139 (Homo sapiens, UniProt Q6DWJ6)	calcium response, agonist, BRET	HEK293T/17, transfected	–	5610 ± 620 nM
Fc1ccc(CN2CCC[C@@H](c3nc(-c4ccc(F)c5cn[nH]c45)no3)C2)cn1	CNR2	agonist, GloSensor cAMP	CHO expressing CNR2	–	101 nM and 91.5 nM
O=C(Cc1ccc(OCc2ccccc2)cc1)NC1(C(=O)O)CCN(C(=O)c2ccc(-c3cccc(Cl)c3)cc2)CC1	ADORA3 (Homo sapiens, UniProt P0DMS8)	cAMP, agonist, luciferase	–	–	> 10000 nM
CC(C)C[C@H](NC(=O)[C@@H](N)[C@@H](C)O)C(=O)N[C@@H](CCC(N)=O)C(=O)N1CCC[C@H]1C(=O)N1CCC[C@H]1C(=O)N[C@@H](C)C(=O)N[C@@H](CO)C(=O)N[C@@H](CO)C(=O)N[C@@H](CCCNC(=N)N)C(=O)N[C@@H](CCCNC(=N)N)C(=O)N[C@@H](CCCNC(=N)N)C(=O)N[C@@H](Cc1c[nH]cn1)C(=O)N[C@@H](Cc1ccccc1)C(=O)N[C@@H](Cc1c[nH]cn1)C(=O)N[C@@H](Cc1c[nH]cn1)C(=O)N[C@@H](C)C(=O)N[C@@H](CC(C)C)C(=O)N1CCC[C@H]1C(=O)N1CCC[C@H]1C(=O)N[C@@H](C)C(=O)N[C@@H](CCCNC(=N)N)C(=O)O	C3AR1	cAMP, agonist, luciferase	–	–	708 nM
O=C(Nc1ccc(N2CCOCC2)cc1)c1cc(-c2ccccc2)n(-c2ccccc2)n1	Genome polyprotein NS2B-NS3 protease	reporter gene	HeLa	–	14000 nM
CCOC(=O)C(CC)(CCCSCCOCCN)NC(=O)c1ccc(C2CC2)c(Cc2ccc(F)cc2)n1 (stereo not shown)	CNR2	cAMP, agonist	–	–	8.2 nM
Nc1ccc(CNC(=O)c2cc(-c3ccccc3)n(-c3ccccc3)n2)cc1	Genome polyprotein NS2B-NS3 protease	reporter gene	HeLa	–	34000 nM
C[C@@]1(c2nc(-c3ccc(F)c4cn[nH]c34)no2)CCCN(C(=O)c2ccc(F)nc2)C1	CNR2	agonist, GloSensor cAMP	CHO expressing CNR2	–	7.49 nM and 8.7 nM and 7.88 nM and 8.16 nM
C[C@@H]1CN(Cc2ccc(S(=O)(=O)n3cnc(C4CC4)n3)cc2)[C@@H](C)CN1c1cc(=O)n(C)c2ccc(C#N)nc12	DGKA	plasma membrane translocation, activator, TIRF microscopy, measured: endogenous DGKα	NG-DGKα knock-in cells	720 s	1880 nM
CNc1ncnc2c1ncn2C1OC(CO)C(O)C1O (stereo not shown)	ADORA2A (Homo sapiens, UniProt P29274)	G protein activation, agonist	–	–	68000 nM

For quick reference, copied from above:
Compound	target	assay	test system	conditions	EC50
CCOC(=O)[C@](CC)(CCCSCCOCCOCCNC(=O)OC(C)(C)C)NC(=O)c1ccc(C2CC2)c(Cc2ccc(F)cc2)n1	CNR2	cAMP, agonist	–	–	4 nM
N=C(N)NCc1ccc(CNC(=O)c2cc(-c3ccccc3)n(-c3ccccc3)n2)cc1	Genome polyprotein NS2B-NS3 protease	reporter gene	HeLa	–	> 50000 nM
